Measurements collected from several papers.
Compare with care: the assays were run in different laboratories. ± gives the spread as reported.
Method: steady-state kinetics
B1: enzyme S252E/S281E/S285E/S287E (Schizosaccharomyces pombe, UniProt P78804); chain MSTPYEPEFQQAYKEIVGSIESSKLFEVHPELKRVLPIISIPERVLEFRVTWEDDKGNCRVNTGYRVQFNSALGPYKGGLRFHPSVNLSILKFLGFEQIFKNALTGLPMGGGKGGSDFDPKGKSDNEIRRFSQAFMRQLFRYIGPQTDVPAGDIGVTGFVVMHMFGEYKRLRNEYSGVVTGKHMLTGGSNIRPEATGYGVVYYVKHMIEHRTKGAETLKGKRVAISGSGNVAQYAALKCIQEGAIVKSISDEKGVLIAKTAEGLVPEEIHEIMALKEKRAEIADEAELCKKHHYIAGARPWTNVGEIDIALPCATQNEVSGEEAAALIKQGCRYVAEGSNMGSSAEAVEVFEKSRASGEGCWLAPGKAANAGGVAVSGLEMAQNAQFSTWTHAEVDAKLAGIMQNIFEQSTDVASKYCDSGSNNIPSLVDGANIAGFLKVATAMQAVGDWW
B2: enzyme (Azotobacter vinelandii, UniProt C1DN94); chain MSESPLRLDRLRDFVSALGELLDRHPDEESVLREGRSLLGELVRHDDWLPEEFAQPDPERYQQYLLHADSRQRFSVVSFVWGPGQTTPVHDHRVWGLIGMLRGAEDAQSFELGAEGLRPIGDPVRLSPGQVEAVSPRIGDIHRVFNASPDQPSISIHVYGANIGAVRRAVYLPDGSEKPFISGYSNQFLPNIWDQSKESARP
B3: enzyme C74S (UniProt A0A0P0CH59); chain MRIALFSDIHANLPALEAVLANMETQQLDAIYCLGDLVGYAPWPNEVVAEIRKRRIPTIAGNYDEGVGLWSPNSGCAYKTDTEKDLGQQSIDFTNNVVTEETRKYLRMLPRQLRLTFMDGSKEENKIELLLVHGSPRKINEYLFEDRPEKSFLKMMEEANADLLFFGHTHKPYHRAMPYEHEGQTRYRHAINIGSVGKPKDGDPRTGYVVVELTPESSLTQKDSIKVEFIRVPYDVETAAQAVEASPLPNEFAQMLRTA
B4: ispG (Escherichia coli, UniProt P62620); chain MHNQAPIQRRKSTRIYVGNVPIGDGAPIAVQSMTNTRTTDVEATVNQIKALERVGADIVRVSVPTMDAAEAFKLIKQQVNVPLVADIHFDYRIALKVAEYGVDCLRINPGNIGNEERIRMVVDCARDKNIPIRIGVNAGSLEKDLQEKYGEPTPQALLESAMRHVDHLDRLNFDQFKVSVKASDVFLAVESYRLLAKQIDQPLHLGITEAGGARSGAVKSAIGLGLLLSEGIGDTLRVSLAADPVEEIKVGFDILKSLRIRSRGINFIACPTCSRQEFDVIGTVNALEQRLEDIITPMDVSIIGCVVNGPGEALVSTLGVTGGNKKSGLYEDGVRKDRLDNNDMIDQLEARIRAKASQLDEARRIDVQQVEK
B5: enzyme Y414S/Y415A (Methanosarcina mazei, UniProt Q8PVB1); chain MSEQRSVPLREHLLALKPCRHGGLIQETSETYGIPENEILDFSANFNPLGSPFDYPENGLNFEDIIKKSCGKLLEYPDNRYVEFREAAARFVGLGVTPQSIVPGNGSTEIVRLVVESVIEKGDKVLLPWPTFGEYEMQCRITGAEPVCPSQEEVNTLPDEVLEEAKILFICNPNNPTGKLRTREELKVLAERCREHKTLLYVDEAFIELSDPSQSVADLPAENNYVFVMRSLTKDFAIPGIRMGFGIAPPAMADILNTARLSWNLGAIANNTGIALLNIEGGIDSPYLKKAREMILKEGETLKAKIDRIRGFEAGEVNVNFILVDVSKFMLNSSELTARLAARGVLVRDCVSFHGLGKNYIRVAVRTEKENDRLIAAIGDVITEWGREQAKNELQHVIEKASEEGIGGRKTCESAPCHFEGQNCTFCFCPFYPCENEKTGGKWIQSSRGGRVWSCVDCHLVHKKEIAQKILDCLMHEGDTDELVKVAWKEVMEPIL
B6: enzyme (Pseudomonas poae, UniProt A0A2S9EJ63); chain MSTQHYDYIIVGGGSAGSVLANRLSAQADKRVLLIEAGADTPEHDTPTDILDGLQPWLPRLAGERYFWPGLNILRASEHGDIPREPQLYEQARILGGGSSVNMMVANRGLPRDYDEWARLGADGWDWQGVLPYFRKLERDLDFGHSHPEQHGQDGPIPIARVDSRHWGSFTRASAQALHTQGLNDIVDQNGRFEDGYFAPAVAIEHDQRVSSARAYLNAAVRARPNLSVWADTTVRQLTVKGQRVTGVQAVRDGRTVELAGDEVILAAGALQSPAFLLRAGIGPADQLRDLGIEVIADRPGVGRNLWDHSSIGLSASLHHPQVPSDEPGAAHLLAARVSSGVEPSVPGDLYLGIAPNAALGLASAVLWVNKPSSSGHLRLRSKDPADYPAVEFNLLSDRRDLERLRQGLRLLARVFAHPAVAAFSGPPRLSRFAQASNEGPLLSELLANDAQLERYLRTHVGGVWHASGTCRIGRADDPQAVVDHAGRVHGVQGLRVADASVFPSIPTANTNLPTLMIAEKIAEAILANA
B7: enzyme W53Y (Thermoplasma volcanium, UniProt Q978S7); chain MAFHGLVKYSDITVEGYPKIQYHGFIGNNRTAMLVAMNGYIDYGCLPNFNSNAVFSSILDKNKGGYFAIFPSDTTDVYVDQYYKEMTNVLVTEFVKNGKIILRLTDFMPDSEYGKISFPEVHRFVESFSEPIDITIDFKPTFNYGQDKPIIEKDQHGFIFTTDKESIGISSEFPLRKNSDRIFGNVKMEPRSSSWIIALYGIHHLFRTTDYKSYLRLQETTDYWRKWASSSSYAGAYHSMVMRSALALKVLFYEPTGLMVAAPTASLPEAIGGERNWDYRFTWIRDTAYVIEALSSIGYKYEATEFLYDMMDMITRDNRIRTIYSIDDSNDLEERIIDYEGYRGSRPVRIGNKAVDQLQIDQYGSIVRAIHSMAKAGGIVNSYLWDFVEQVMAKIEYLWKYPDSSIWEFRTEPKQYVYSKVMSWAAFDSAISMAKDLGLSAPIKQWKSIQDEIKKEVLEKGFDTDTNSFVQYYGSKNIDAALLRLPILGFIPANDEKFLGTLSRIEKELMVDGYLFKRYREDDGLKGDEGSFLMLTFWYIEDLILMKRLKKAREVLESVLEKANHLGLYSEEIDEKSGDFLGNFPQALSHLGVIRVAPKLEEALLKRTSKINS
B8: enzyme (Homo sapiens, UniProt P50583); chain ALRACGLIIFRRCLIPKVDNNAIEFLLLQASDGIHHWTPPKGHVEPGEDDLETALRETQEEAGIEAGQLTIIEGFKRELNYVARNKPKTVIYWLAEVKDYDVEIRLSHEHQAYRWLGLEEACQLAQFKEMKAALQEGHQFLCSIEA
B9: enzyme (Populus trichocarpa, UniProt A0A2K1ZZ60); chain ITRQYTFNITHKNFTRLCHTRSLVTVNGQFPGPRLVAREGDQVLVKVVNHVAENITIHWHGVRQLTSGWADGPAYVTQCPIQTGQAYTYNFTITGQRGTLLWHAHISWLRSSLYGPIIILPKLNESYPFKKPYKEIPILFGEWFNVDPEAVIAQALQTGAGPNVSDAYTINGLPGPLYNCSAKDTYKLKVKPGKTYLLRLINAALNDELFFSIANHTLTVVEADAVYVKPFEADTLLISPGQTTNVLLKTKPHLPNATFYMFAGPYFSGMGSFDNSTTAGVLVYKHPSSNNHLKKLPTLKPTLPPINATGFVANFTKKFRSLANAKFPANVPQTVDRKFFFTVGLGTNPCPKNTTCQGPNNNTKFAASINNVSFVLPSVALLQSYFFGQSNGVFTSDFPQNPTIPFNYTGTPPNNTMVSNGTKAVVLTFNTSVELVMQGTSIVAAESHPLHLHGFNFFVVGQGFGNYDPNKDPSNFNLVDPMERNTAGVPAGGWIAIRFLADNPGVWFMHCHLDVHTSWGLRMAWIVLDGPQPNQKIPPPPSDLPKC
B10: enzyme (Oryza sativa, UniProt Q6ZGQ4); chain ASGPPFSCGAPSSAAFCNPRLPIEQRADDLVSRLTLEEKISQLGDQSPAVDRLGVPAYKWWSEALHGVSNAGRGIHLDGPLRAATSFPQVILTAASFNPHLWYRIGQVIGTEARAVYNNGQAEGLTFWAPNINVFRDPRWGRGQETPGEDPTVTGKYAAVFVRGVQGYALAGAINSTDLEASACCKHFTAYDLENWKGVTRYAFDAKVTAQDLADTYNPPFRSCVEDGGASGIMCSYNRVNGVPTCADYNLLSKTARGDWRFYGYITSDCDAVSIIHDVQGYAKTAEDAVADVLKAGMDVNCGSYVQEHGLSAIQQGKITEQDINRALHNLFAVRMRLGLFNGNPKYNRYGNIGPDQVCTQEHQNLALEAAQHGVVLLKNDANALPLSKSQVSSIAVIGHNANDATRLLGNYFGPPCISVTPLQVLQGYVKDTRFLAGCNSAACNVSSIGEAAQLASSVDYVVLFMGLDQDQEREEVDRLELSLPGMQENLINTVANAAKKPVILVLLCGGPVDVTFAKYNPKIGAILWAGYPGEAGGIAIAQVLFGEHNPGGRLPVTWYPKEFTSVPMTDMRMRADPSTGYPGRTYRFYRGNTVYKFGYGLSYSKYSHHFVANGTKLPSLSSIDGLKAMATAAAGTVSYDVEEIGPETCDKLKFPALVRVQNHGPMDGRHPVLLFLRWPNGAADGGRPASQLIGFQSLHLKSMQTVHVEFEVSPCKHFSRATEDGKKVIDHGSHFMMVGDDEFEMSFTP

Substance | substrate | setting | kcat [s⁻¹]
acsA L233M (Pseudomonas chlororaphis) | O=C(O)CCC(F)(F)F | pH 7 | 0.123 ± 0.00167
B1 (enzyme S252E/S281E/S285E/S287E) | NC(=O)C1=CN([C@@H]2O[C@H](COP(=O)(O)OP(=O)(O)OC[C@H]3O[C@@H](n4cnc5c(N)ncnc54)[C@H](OP(=O)(O)O)[C@@H]3O)[C@@H](O)[C@H]2O)C=CC1 | pH 7, 30 °C, apparent | 14 ± 1
enzyme (Rhodopseudomonas palustris, UniProt Q6N7F5) | CC(C)C(=O)O | pH 7.5, 37 °C | 3.01 ± 0.87
enzyme (Castanea crenata, UniProt P82859) | CCCCCCCCCCCCCCCC(=O)Oc1ccc([N+](=O)[O-])cc1 | pH 8, 35 °C | 0.00368
enzyme (UniProt F0RRL2) | O=P(O)(O)O | pH 5.5, 37 °C, apparent | 62.7 ± 3.2
B2 (enzyme) | N[C@@H](CS)C(=O)O | pH 8, 25 °C, added: O2 | 1.2 ± 0.1
B3 (enzyme C74S) | O=[N+]([O-])c1ccc(OP(=O)(O)O)cc1 | pH 7, 37 °C, added: Ni2+ 0.25 mM | 0.0683 ± 0.005
B4 (ispG) | C[C@@]1(CO)OP(=O)(O)OP(=O)(O)OC[C@H]1O | – | 0.395
B5 (enzyme Y414S/Y415A) | Nc1ncnc2c1ncn2[C@@H]1O[C@H](COP(=O)(O)OP(=O)(O)OP(=O)(O)O)[C@@H](O)[C@H]1O | pH 8.5, 25 °C, apparent, anoxic, added: L-Thr 10 mM | 0.018 ± 0.002
spt (Sphingomonas paucimobilis, UniProt Q93UV0) | CCCCCCCCCCCCCCCC(=O)SCCNC(=O)CCNC(=O)[C@H](O)C(C)(C)COP(=O)(O)OP(=O)(O)OC[C@H]1O[C@@H](n2cnc3c(N)ncnc32)[C@H](O)[C@@H]1OP(=O)(O)O | added: PLP | 0.85 ± 0.03
B6 (enzyme) | O=Cc1ccc(CO)o1 | pH 8, 30 °C, added: 2 µM FAD | 0.00855
enzyme (Equus caballus, UniProt P00327) | NC(=O)c1ccc[n+]([C@@H]2O[C@H](COP(=O)(O)OP(=O)(O)OC[C@H]3O[C@@H](n4cnc5c(N)ncnc54)[C@H](OP(=O)(O)O)[C@@H]3O)[C@@H](O)[C@H]2O)c1 | pH 7, 30 °C, cofactor varied | 0.0005 ± 0.0001
enzyme Y26F (Homo sapiens, UniProt Q08623) | O=c1[nH]cc([C@@H]2O[C@H](COP(=O)(O)O)[C@@H](O)[C@H]2O)c(=O)[nH]1 | pH 7, 25 °C | 0.783
B7 (enzyme W53Y) | OC[C@H]1O[C@H](O[C@H]2O[C@H](CO)[C@@H](O)[C@H](O)[C@H]2O)[C@H](O)[C@@H](O)[C@@H]1O | pH 3.7, 30 °C | 7.6 ± 0.1
B8 (enzyme) | Nc1ncnc2c1ncn2[C@@H]1O[C@H](COP(=O)(O)OP(=O)(O)OP(=O)(O)OP(=O)(O)OP(=O)(O)OC[C@H]2O[C@@H](n3cnc4c(N)ncnc43)[C@H](O)[C@@H]2O)[C@@H](O)[C@H]1O | added: Mg2+ | 0.47 ± 0.2
B9 (enzyme) | COc1cc(/C=C/CO)cc(OC)c1O | 27 °C | 4.33 ± 0.53
B10 (enzyme) | O=[N+]([O-])c1ccc(O[C@@H]2OC[C@H](O)[C@H](O)[C@H]2O)cc1 | pH 4, 40 °C, apparent | 0.19 ± 0.02
acmB (Sterolibacterium denitrificans, UniProt A9XWD7) | CC(=O)[C@H]1CC[C@H]2[C@@H]3CCC4=CC(=O)CC[C@]4(C)[C@H]3CC[C@]12C | pH 6.5, added: DCPIP 0.1–0.3 mM | 21.3
HNL E79H/H103V/K236M/T11G (Hevea brasiliensis) | CC(=O)Oc1ccc([N+](=O)[O-])cc1 | pH 7.2, 22 °C | 0.00533 ± 0.000333

Excerpt of the above:
Substance | substrate | setting | kcat [s⁻¹]
B10 (enzyme) | O=[N+]([O-])c1ccc(O[C@@H]2OC[C@H](O)[C@H](O)[C@H]2O)cc1 | pH 4, 40 °C, apparent | 0.19 ± 0.02
B5 (enzyme Y414S/Y415A) | Nc1ncnc2c1ncn2[C@@H]1O[C@H](COP(=O)(O)OP(=O)(O)OP(=O)(O)O)[C@@H](O)[C@H]1O | pH 8.5, 25 °C, apparent, anoxic, added: L-Thr 10 mM | 0.018 ± 0.002
